Experimental data pooled from the literature.
Numbered parts are unrelated; each lists some results of a single study.

Set 1
Target: Histone acetyltransferase KAT6A, winged helix 1, GST fusion (KAT6A, Homo sapiens, UniProt Q92794, residues 1-85)
Technique: protein binding microarray
Form: double-stranded DNA, one strand shown
Matrix: in vitro
Concentration: not given
Notes: 8-mer, flanks averaged, mean of 2 arrays, mostly near background
Reference: not given
Direction: higher = stronger binding
Target sequence (chain): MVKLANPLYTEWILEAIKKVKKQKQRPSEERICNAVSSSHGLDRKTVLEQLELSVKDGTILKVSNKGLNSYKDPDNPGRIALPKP
| Sequence | E-score |
| --- | --- |
| AAGACGCC | 0.175 |
| CATACTTA | -0.132 |
| CGACTGCC | 0.217 |
| CCCTTGGC | 0.00351 |
| GCGGACTA | 0.155 |
| CGCATCAC | 0.0798 |
| ACACGTCG | 0.0564 |
| CCCCTGCC | 0.0221 |

Set 2
Target: Centromere-binding protein 1, full length, N-terminal tag (CBF1, Saccharomyces cerevisiae, UniProt P17106, residues 1-351)
Sequence of UniProt P17106 (whole entry, looked up): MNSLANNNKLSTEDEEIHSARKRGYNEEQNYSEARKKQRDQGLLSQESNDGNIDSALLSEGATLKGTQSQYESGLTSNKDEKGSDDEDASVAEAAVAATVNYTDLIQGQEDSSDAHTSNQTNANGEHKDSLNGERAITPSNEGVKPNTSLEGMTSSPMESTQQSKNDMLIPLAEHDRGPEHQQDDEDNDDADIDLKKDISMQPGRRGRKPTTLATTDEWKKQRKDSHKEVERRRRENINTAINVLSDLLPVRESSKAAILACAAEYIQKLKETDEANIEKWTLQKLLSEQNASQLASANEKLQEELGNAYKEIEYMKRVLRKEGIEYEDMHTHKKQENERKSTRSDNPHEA
Technique: protein-binding microarray
Form: double-stranded DNA, one strand shown
Matrix: in vitro
Concentration: 0.8 µM
Notes: whole 60-bp probe, no competitor
Direction: higher = stronger binding
All sequences stand within: … GTCTTGATTCGCTTGACGCTGCTG
| Sequence | fluorescence intensity [a.u.] |
| --- | --- |
| CTATCAACATCTTGTGACCTGATGATTTTCCTCTTC | 947 |
| CCTAACTACTATAATATCGTGACATAGCTTCGTACA | 814 |
| GAAAATTTTCGACATCATGCCTTCCGAATAAATTAG | 613 |
| CTAACGAGTACCGCACACGTAGGCCAAAGCACTTTC | 520 |
| GAATATTCATATTGACACGTAACGCAAAAGAACTAG | 532 |
| GAAGCTTACATAGGTGGTGGCACTACCATAATATAG | 510 |
| GAATGTGTTGCACGTGACTAAACATTGTCAATTTAG | 24800 |
| GAATCCTGTTTATCCCAGATCACGTTTGTTCCATAG | 2050 |

Set 3
Target: Sal-like protein 4, full length isoform B (SALL4, Homo sapiens, UniProt Q9UJQ4-2, residues 1-616)
Technique: universal PBM
Form: double-stranded DNA, one strand shown
Matrix: in vitro
Concentration: not given
Notes: 8-mer, flanks averaged, mean of replicates
Direction: higher = stronger binding
Residues (chain): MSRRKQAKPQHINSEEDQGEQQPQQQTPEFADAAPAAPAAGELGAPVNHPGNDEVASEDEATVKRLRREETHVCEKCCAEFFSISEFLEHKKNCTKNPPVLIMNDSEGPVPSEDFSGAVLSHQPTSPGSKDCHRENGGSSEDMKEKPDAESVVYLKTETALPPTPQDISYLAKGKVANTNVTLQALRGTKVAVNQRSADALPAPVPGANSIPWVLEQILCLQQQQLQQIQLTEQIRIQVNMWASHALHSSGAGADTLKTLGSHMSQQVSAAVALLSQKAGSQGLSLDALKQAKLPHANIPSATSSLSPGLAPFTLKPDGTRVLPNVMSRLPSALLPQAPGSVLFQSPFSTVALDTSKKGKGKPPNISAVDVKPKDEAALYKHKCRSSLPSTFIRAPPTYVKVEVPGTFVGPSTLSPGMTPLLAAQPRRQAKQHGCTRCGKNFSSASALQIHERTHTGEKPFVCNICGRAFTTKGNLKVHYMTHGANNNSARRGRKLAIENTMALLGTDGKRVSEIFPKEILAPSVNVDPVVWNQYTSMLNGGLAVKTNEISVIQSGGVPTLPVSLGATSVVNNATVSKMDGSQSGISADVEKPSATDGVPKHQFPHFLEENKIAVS
| Sequence | E-score |
| --- | --- |
| CTAATCGC | -0.019 |
| TGTAAACA | 0.214 |
| ACTCAGTG | -0.181 |
| CAGTGAGG | -0.207 |
| TCCAGAAA | 0.0871 |
| GGAAGAAC | -0.0225 |

Single results of other studies
| Substance | target | test | system | conditions | scale | quantity | result |
| --- | --- | --- | --- | --- | --- | --- | --- |
| PhoQ, residues 284 288 289 292 302 303 TLASMF | PhoP, residues 12 14 15 18 19 VQGLL (Escherichia coli, UniProt P23836) | Sort-seq, measured: YFP reporter | E. coli | PhoQ-PhoP variant library, together with: 10 µM Mg2+ | reference: high Mg2+ state, higher = stronger signaling | fold induction | 7.26 |

Repeated from above (set 1):
| Sequence | E-score |
| --- | --- |
| ACACGTCG | 0.0564 |
| GCGGACTA | 0.155 |
